Experimental data gathered from unrelated publications.
Protocols differ between the studies behind these lines. Numbers after ± are the reported error.

| SMILES | test | system | conditions | tissue uptake |
| --- | --- | --- | --- | --- |
| CCCC[C@H](NC(=O)CNC(=O)CNC(=O)CN1CCN(CC(=O)O)CCN(CC(=O)O)CCN(CC(=O)O)CC1)C(=O)N[C@H]1CC(=O)NCCCC[C@@H](C(N)=O)NC(=O)[C@H](Cc2c[nH]c3ccccc23)NC(=O)[C@H](CCCNC(=N)N)NC(=O)[C@@H](Cc2ccccc2)NC(=O)[C@H](Cc2c[nH]cn2)NC1=O [gallium-67 labelled] | – | C57 mice, female, B16/F1 melanoma, intestines | intravenous, 0.037 MBq, 24 h | 0.46 ± 0.06 %ID |
| NC12CNCCNCC(NCc3ccc(CNC(=O)CCCC(=O)NCc4ccc(-c5nncnn5)cc4)cc3)(CNCCNC1)CNCCNC2.[64Cu+2] | – | athymic nude mice, SW1222 xenograft, small intestine with contents | 1 h, pretargeting with huA33-TCO, 24 h interval | 0.88 ± 0.09 %ID/g |
| O=C(NCC1OC2CCC=CCCC2O1)c1ccc([18F])nc1 (stereo not drawn) | – | female BALB/c nude mice, liver | intravenous, 10 min | 17.1 ± 6.9 %ID/g |
| CCCC[C@@H]1NC(=O)[C@@H](NC(=O)[C@H](CCC(=O)O)NC(=O)CNC(=O)CN2CCN(CC(=O)O)CCN(CC(=O)O)CCN(CC(=O)O)CC2)CCCCNC(=O)C[C@@H](C(N)=O)NC(=O)[C@H](C(C)C)NC(=O)[C@@H]2CCCN2C(=O)[C@H](CCCNC(=N)N)NC(=O)CNC(=O)[C@H](Cc2c[nH]c3ccccc23)NC(=O)[C@H](CCCNC(=N)N)NC(=O)[C@@H](Cc2ccccc2)NC(=O)[C@H](Cc2c[nH]cn2)NC(=O)[C@H](CCC(=O)O)NC1=O [gallium-67 labelled] | – | C57 mice, B16/F1 flank melanoma, lung | intravenous, 2 h, added: blocking peptide 10 µg | 0.04 ± 0.03 %ID/g |
| CCCC[C@H](NC(=O)CN1CCC(NC(=O)CN2CCN(CC(=O)O)CCN(CC(=O)O)CCN(CC(=O)O)CC2)CC1)C(=O)N[C@H]1CC(=O)NCCCC[C@@H](C(N)=O)NC(=O)[C@H](Cc2c[nH]c3ccccc23)NC(=O)[C@H](CCCNC(=N)N)NC(=O)[C@@H](Cc2ccccc2)NC(=O)[C@H](Cc2c[nH]cn2)NC1=O [gallium-68 labelled] | – | C57BL/6J mice male B16-F10 tumour, blood | 2 h post injection, unblocked | 0.2 %ID/g |
| CN1C(=O)[C@@H](Cc2ccc(O)c(I)c2)NC(=O)CNC(=O)[C@H](Cc2ccc3ccccc3c2)NC(=O)[C@H](CCCNC(=N)N)NC(=O)[C@H]1CCCNC(=O)c1ccc(CNC(=O)CN2CCN(CC(=O)O)CCN(CC(=O)O)CCN(CC(=O)O)CC2)cc1 [lutetium-177 labelled] | item: 177Lu radioactivity | female CB-17 SCID mice, Daudi xenograft, heart | intravenous, 0.16 nmol per mouse, 6 h | 0.18 ± 0.02 %ID/g |
| CCCC[C@H](NC(=O)CNC(=O)CNC(=O)CN1CCN(CC(=O)O)CCN(CC(=O)O)CC1)C(=O)N[C@H]1CC(=O)NCCCC[C@@H](C(N)=O)NC(=O)[C@H](Cc2c[nH]c3ccccc23)NC(=O)[C@H](CCCNC(=N)N)NC(=O)[C@@H](Cc2ccccc2)NC(=O)[C@H](Cc2c[nH]cn2)NC1=O [gallium-67 labelled] | – | female C57 mice, B16/F1 melanoma, brain | intravenous, 0.037 MBq, 24 h | 0.08 ± 0.02 %ID/g |
| O=C([O-])CN1CCN(CC(=O)[O-])CCN(CC(=O)[O-])CCN(CC(=O)[O-])CC1.[64Cu+2] | – | healthy athymic nude mice, small intestine | intravenous, 4 h | 0.88 %ID/g |
| N=C(N)NCCC[C@@H]1NC(=O)[C@H](CCCCNC(=O)CON=C[C@H](F)[C@@H](O)[C@H](O)[C@H](O)CO)NC(=O)[C@@H](Cc2ccc(O)cc2)NC(=O)[C@H](CC(=O)O)NC(=O)CNC1=O [fluorine-18 labelled] | – | nude mice U-87 MG tumour, blood | intravenous, 1 h | 0.84 ± 0.19 %ID/g |
| O=C([O-])c1cccc(CN(CCN(Cc2cn(Cc3ccccc3)nn2)Cc2cccc(C(=O)[O-])n2)Cc2cn(Cc3ccccc3)nn2)n1.[64Cu+2] | – | healthy athymic nude mice, spleen | intravenous, 15 min | 1.5 %ID/g |
| O=C([O-])CN1CCN(CC(=O)[O-])CCN(CC(=O)NCCc2ccc3c(c2)C2C=CCC2C(c2cc4c(cc2Br)OCO4)N3)CCN(CC(=O)[O-])CC1.[111In+3] (stereo not drawn) | – | mice with Hec50 tumour xenograft, mammary gland | 2 h | 0.44 ± 0.03 %ID/g |
| CC(C)[C@H](NC(=O)[C@@H]1CCCN1C(=O)[C@H](CCCNC(=N)N)NC(=O)[C@H](CS)NC(=O)[C@H](Cc1c[nH]c2ccccc12)NC(=O)[C@H](CCCNC(=N)N)NC(=O)[C@@H](Cc1ccccc1)NC(=O)[C@H](Cc1c[nH]cn1)NC(=O)[C@H](CCC(=O)O)NC(=O)[C@H](CS)NC(=O)[C@H](CS)NC(=O)CNC(=O)[C@@H]1CC(=O)N[C@@H](CCCNC(=N)N)C(=O)NCC(=O)N[C@@H](CC(=O)O)C(=O)N[C@H](Cc2ccc(O)cc2)C(=O)N1)C(N)=O [technetium-99m labelled] | – | C57 mice B16/F1 melanoma female, spleen | iv, 2 h, added: NDP-MSH 10 µg co-injected | 1.28 ± 0.68 %ID/g |

For quick reference, copied from above:
| SMILES | test | system | conditions | tissue uptake |
| --- | --- | --- | --- | --- |
| O=C(NCC1OC2CCC=CCCC2O1)c1ccc([18F])nc1 (stereo not drawn) | – | female BALB/c nude mice, liver | intravenous, 10 min | 17.1 ± 6.9 %ID/g |
| CCCC[C@@H]1NC(=O)[C@@H](NC(=O)[C@H](CCC(=O)O)NC(=O)CNC(=O)CN2CCN(CC(=O)O)CCN(CC(=O)O)CCN(CC(=O)O)CC2)CCCCNC(=O)C[C@@H](C(N)=O)NC(=O)[C@H](C(C)C)NC(=O)[C@@H]2CCCN2C(=O)[C@H](CCCNC(=N)N)NC(=O)CNC(=O)[C@H](Cc2c[nH]c3ccccc23)NC(=O)[C@H](CCCNC(=N)N)NC(=O)[C@@H](Cc2ccccc2)NC(=O)[C@H](Cc2c[nH]cn2)NC(=O)[C@H](CCC(=O)O)NC1=O [gallium-67 labelled] | – | C57 mice, B16/F1 flank melanoma, lung | intravenous, 2 h, added: blocking peptide 10 µg | 0.04 ± 0.03 %ID/g |
